# Experimental data of several laboratories.
# Numbered parts are unrelated; each lists some results of a single study.

# Sample 1 — technique: RNA Bind-n-Seq; molecule type: RNA; sample: in vitro; tested at: 200 nM; notes: whole 134-nt RNA, ends assumed; together with: 150 mM LiCl; relative to: input library; direction: higher = stronger binding; library: 7-deaza-guanosine replaces G
# Target: Ras GTPase-activating protein-binding protein 1, full length (G3BP1, Homo sapiens, UniProt Q13283)
# Chain of UniProt Q13283 (whole entry, looked up): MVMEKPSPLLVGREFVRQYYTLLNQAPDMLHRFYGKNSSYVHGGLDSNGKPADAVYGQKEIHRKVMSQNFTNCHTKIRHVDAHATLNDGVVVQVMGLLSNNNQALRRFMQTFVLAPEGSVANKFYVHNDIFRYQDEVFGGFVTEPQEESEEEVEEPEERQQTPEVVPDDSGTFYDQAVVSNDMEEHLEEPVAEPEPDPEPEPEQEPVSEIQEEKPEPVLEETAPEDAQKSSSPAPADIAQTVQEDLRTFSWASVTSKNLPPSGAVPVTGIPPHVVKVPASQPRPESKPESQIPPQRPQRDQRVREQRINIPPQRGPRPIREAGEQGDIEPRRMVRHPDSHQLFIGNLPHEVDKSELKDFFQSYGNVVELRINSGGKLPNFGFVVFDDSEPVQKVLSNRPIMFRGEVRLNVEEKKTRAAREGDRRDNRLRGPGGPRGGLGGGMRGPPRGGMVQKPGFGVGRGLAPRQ
# Constant ends, left off below: GGGAGUUCUACAGUCCGACGAUC … UGGAAUUCUCGGGUGUCAAGG
Sequence,log2 enrichment
AGUCCUGUGCUACACAUCGUAUGUACCGAAUCAAACCCAAACCCAAACCCCCCCAAAAAAGUAUUAUGUUACGCCGUUCGGAUCUGCACU,0.0786
GUCCUGUGCUACACAUCGUAUGUACCGAAUCGGUUUUUGGAAAAAAAGGAAAAAAAGGAAAGUAUUAUGUUACGCCGUUCGGAUCUGCAC,-1.96
GUCCUGUGCUACACAUCGUAUGUACCGAAUCAAACCCCCAAAUUUAAACCCCCCCAAAAAAGUAUUAUGUUACGCCGUUCGGAUCUGCAC,0.528
GUCCUGUGCUACACAUCGUAUGUACCGAAUCGGGGAAAGGGGAAAAAGGGGUUUGGGGAAAGUAUUAUGUUACGCCGUUCGGAUCUGCAC,-0.59
UGGGAGGUGGAUUUUGUUUAUUUUUUUAGCUCAUUUCCAGGGGUGGGAAUUUUUUUUUAAUAUGUGUCAUCAAUAAAGUUGUUUUUGAAA,0.101
UAACUUUCGAGGAGGAUCUGAUGGAUAUGGCAGUGGACGUGGAUUUGGGGAUGGCUAUAAUGGGUAUGGAGGAGGACCUGGAGGUGGCAA,0.00449
CACAGACAACACGCACCCACACAGACACAGAGGGAAGGGGUUGGGAUGGGGACAGGGGGCACAGCAGGGCGGGGUAGGACCCCAGCCCCU,0.0344
GUCCUGUGCUACACAUCGUAUGUACCGAAUCGGGGUUUUUUUGGGGUGGGGUUUGGGGAAAGUAUUAUGUUACGCCGUUCGGAUCUGCAC,0.105
CCUGUGCUACACAUCGUAUGUACCGAAUCAAACCCCCCCAAAUUUUUUUAAACCCCCAAAAAAGUAUUAUGUUACGCCGUUCGGAUCUGC,1.33
UGGGAGGUGGAUUUUGUUUAUUUUUUUAGCUCAUUUCCAGGGGUGGGAAUUUUUUUUUAAUAUGUGUCAUGAAUAAAGUAGUUUUUGAAA,-0.111
UCCUGUGCUACACAUCGUAUGUACCGAAUCGGGGUUUUUGGGGUGGGGAAAAAAAGGGGAAAGUAUUAUGUUACGCCGUUCGGAUCUGCA,-1.08

# Sample 2 — technique: DNA-protein interaction ELISA; molecule type: double-stranded DNA, one strand shown; sample: in vitro, bacterial lysate; tested at: not given; notes: whole dsDNA probe, crude lysate protein; relative to: highest signal in screen; direction: higher = stronger binding
# Target: Probable WRKY transcription factor 33, C-terminal DNA-binding domain (WRKY33, Arabidopsis thaliana, UniProt Q8S8P5, residues 346-449)
# Construct (chain): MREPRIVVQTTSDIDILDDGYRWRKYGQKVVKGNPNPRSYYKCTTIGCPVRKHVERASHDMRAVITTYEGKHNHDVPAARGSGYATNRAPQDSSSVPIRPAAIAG
Sequence,relative absorbance
AAAAAACATCGCTGTCGTTGACGTTGAAAA,99.6 % of maximum
AAAAAATCGCGAACGTACGTCCGCGGAAAA,37.3 % of maximum
AAAAAATGACCAGGCCTCGAGCAAAAA,55.6 % of maximum
AAAAAAAGTTTGACCTTGGCGTTCGTAAAA,99.3 % of maximum
AAAAAATGCCGAGACCCCATGCCGGCAAAA,42 % of maximum
AAAAAACCCGCCGTCGTGATTATCACAAAA,28.3 % of maximum
AAAAAAGGGTTTGTCGGGAATTGCCGAAAA,31.9 % of maximum
AAAAAAGCATATCTTCAGAACTTGCCAAAA,33.9 % of maximum
AAAAAATTAGGACCATCCCCACTAGGAAAA,35.6 % of maximum
AAAAAACCAGTCTACACCGCTGTAGGAAAA,42.1 % of maximum
AAAAAATGTCTTCTTACACCCTCTAGAAAA,33.9 % of maximum
AAAAAACGCCGGACAATCAGGCGCTCAAAA,59.9 % of maximum
AAAAAATGGAAGGAGAGGGATGAAATAAAA,44.5 % of maximum
AAAAAATTACTTCTCCCTTCCTTTGCAAAA,26.7 % of maximum
AAAAAATCCACGACTCAGCAGCTCTTAAAA,51.1 % of maximum

# Sample 3 — technique: protein binding microarray; molecule type: double-stranded DNA, one strand shown; sample: in vitro; tested at: not given; relative to: not given; direction: higher = stronger binding
# Target: Histone acetyltransferase KAT6A, both winged helices, GST fusion (KAT6A, Homo sapiens, UniProt Q92794, residues 1-181)
# Notes: 8-mer, flanks averaged, mean of 2 arrays, mostly near background
# Residues (chain): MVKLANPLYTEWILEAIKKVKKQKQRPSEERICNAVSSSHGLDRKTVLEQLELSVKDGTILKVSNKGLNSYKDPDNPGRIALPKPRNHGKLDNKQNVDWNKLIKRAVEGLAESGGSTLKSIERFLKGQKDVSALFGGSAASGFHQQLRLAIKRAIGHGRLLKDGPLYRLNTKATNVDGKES
Sequence,E-score
CAACCTGG,-0.0848
ACCGTTAC,0.0607
ACATGGCG,0.123
GAAAACAC,0.0237
AGACCAAG,-0.00576
CAATCGAA,-0.027
AGATGCGC,0.22
ACCAAGAC,-0.028
ATACAACA,-0.0725
GCCCTACC,-0.025
GTGTTCGA,0.0863
CGGTCACC,0.118
CAATAGAA,-0.0776
ATCTGACC,0.0112
AACAGGAA,-0.0479
CCAGATGA,-0.045
ACGAACCA,0.0104
GCAATCCA,0.0637
TAAGGAAA,-0.231
AGAACGGG,0.138
ACGGCAAA,0.299
ACAACCAG,0.0153
CTCATGCC,-0.0624
ACGCGGTG,0.249

# Sample 4 — technique: aptamer microarray, sandwich; molecule type: DNA with 2'F-ANA; sample: in vitro; tested at: 200 nM; together with: Cy3 exosite-II aptamer, 400 nM; direction: higher = stronger binding; sequence: GGTTGGTGTGGTTGG
# Target: Prothrombin, mature alpha-thrombin (F2, Homo sapiens, UniProt P00734)
# Notes: whole 15-mer aptamer, many near background
Modification,mean fluorescence intensity [a.u.]
2'F-ANA at 1 2 10 11 12 13 14 15,73.5
2'F-ANA at 1 4 5 7 8 9 10 11 12 15,168
2'F-ANA at 9 11 12 13 14 15,182
2'F-ANA at 4 7 14 15,116
2'F-ANA at 1 2 4 5 8 9 15,61.5
2'F-ANA at 4 5 6 8 9 10,93.1
2'F-ANA at 1 5 11 14 15,45.7
2'F-ANA at 2 3 6 12 13 14,458
2'F-ANA at 1 3 4 6 7 9 12 13 14 15,65
2'F-ANA at 2 3 4 7 11 12 13 14,316
2'F-ANA at 1 3 5 7 13 14 15,52
2'F-ANA at 2 4 6 7 9 10 11 12 15,132
2'F-ANA at 1 3 4 7 8 13 14,88.8
2'F-ANA at 3 4 5 6 10 13 14,47.1
2'F-ANA at 1 6 8 9 10 11,52.1
2'F-ANA at 2 3 7 9 11 13 14 15,331
2'F-ANA at 1 3 5 6 8 9 10 13 14 15,46.8
2'F-ANA at 3 9 12 15,1420
2'F-ANA at 2 3 4 6 7 8 9 10 11 15,190
2'F-ANA at 2 3 4 5 6 10 11 15,53.5
2'F-ANA at 1 2 3 5 7 8 9 10 12 13,49.8
2'F-ANA at 1 2 3 4 5 7 9 13 15,59.5
2'F-ANA at 1 3 4 5 7 10 12 13,48.7
2'F-ANA at 2 5 7 9 13 14 15,47.6
2'F-ANA at 1 2 6 7 8 9 10 11 12 14 15,72.3

# For quick reference, copied from above (sample 1):
Sequence,log2 enrichment
GUCCUGUGCUACACAUCGUAUGUACCGAAUCGGUUUUUGGAAAAAAAGGAAAAAAAGGAAAGUAUUAUGUUACGCCGUUCGGAUCUGCAC,-1.96
GUCCUGUGCUACACAUCGUAUGUACCGAAUCAAACCCCCAAAUUUAAACCCCCCCAAAAAAGUAUUAUGUUACGCCGUUCGGAUCUGCAC,0.528
GUCCUGUGCUACACAUCGUAUGUACCGAAUCGGGGAAAGGGGAAAAAGGGGUUUGGGGAAAGUAUUAUGUUACGCCGUUCGGAUCUGCAC,-0.59
UGGGAGGUGGAUUUUGUUUAUUUUUUUAGCUCAUUUCCAGGGGUGGGAAUUUUUUUUUAAUAUGUGUCAUCAAUAAAGUUGUUUUUGAAA,0.101
UAACUUUCGAGGAGGAUCUGAUGGAUAUGGCAGUGGACGUGGAUUUGGGGAUGGCUAUAAUGGGUAUGGAGGAGGACCUGGAGGUGGCAA,0.00449
CACAGACAACACGCACCCACACAGACACAGAGGGAAGGGGUUGGGAUGGGGACAGGGGGCACAGCAGGGCGGGGUAGGACCCCAGCCCCU,0.0344
GUCCUGUGCUACACAUCGUAUGUACCGAAUCGGGGUUUUUUUGGGGUGGGGUUUGGGGAAAGUAUUAUGUUACGCCGUUCGGAUCUGCAC,0.105
CCUGUGCUACACAUCGUAUGUACCGAAUCAAACCCCCCCAAAUUUUUUUAAACCCCCAAAAAAGUAUUAUGUUACGCCGUUCGGAUCUGC,1.33
UGGGAGGUGGAUUUUGUUUAUUUUUUUAGCUCAUUUCCAGGGGUGGGAAUUUUUUUUUAAUAUGUGUCAUGAAUAAAGUAGUUUUUGAAA,-0.111
